# Measured values gathered from unrelated publications.
# Each line is one published result; not all experiments were run side by side. Several values in a cell are separate wells, animals, samples, runs or records. ± gives the spread as reported.
# USP20 ZnF-UBD domain: Ubiquitin carboxyl-terminal hydrolase 20, ZnF-UBD domain (USP20, Homo sapiens, UniProt Q9Y2K6)
# Sequence of UniProt Q9Y2K6 (whole entry, looked up): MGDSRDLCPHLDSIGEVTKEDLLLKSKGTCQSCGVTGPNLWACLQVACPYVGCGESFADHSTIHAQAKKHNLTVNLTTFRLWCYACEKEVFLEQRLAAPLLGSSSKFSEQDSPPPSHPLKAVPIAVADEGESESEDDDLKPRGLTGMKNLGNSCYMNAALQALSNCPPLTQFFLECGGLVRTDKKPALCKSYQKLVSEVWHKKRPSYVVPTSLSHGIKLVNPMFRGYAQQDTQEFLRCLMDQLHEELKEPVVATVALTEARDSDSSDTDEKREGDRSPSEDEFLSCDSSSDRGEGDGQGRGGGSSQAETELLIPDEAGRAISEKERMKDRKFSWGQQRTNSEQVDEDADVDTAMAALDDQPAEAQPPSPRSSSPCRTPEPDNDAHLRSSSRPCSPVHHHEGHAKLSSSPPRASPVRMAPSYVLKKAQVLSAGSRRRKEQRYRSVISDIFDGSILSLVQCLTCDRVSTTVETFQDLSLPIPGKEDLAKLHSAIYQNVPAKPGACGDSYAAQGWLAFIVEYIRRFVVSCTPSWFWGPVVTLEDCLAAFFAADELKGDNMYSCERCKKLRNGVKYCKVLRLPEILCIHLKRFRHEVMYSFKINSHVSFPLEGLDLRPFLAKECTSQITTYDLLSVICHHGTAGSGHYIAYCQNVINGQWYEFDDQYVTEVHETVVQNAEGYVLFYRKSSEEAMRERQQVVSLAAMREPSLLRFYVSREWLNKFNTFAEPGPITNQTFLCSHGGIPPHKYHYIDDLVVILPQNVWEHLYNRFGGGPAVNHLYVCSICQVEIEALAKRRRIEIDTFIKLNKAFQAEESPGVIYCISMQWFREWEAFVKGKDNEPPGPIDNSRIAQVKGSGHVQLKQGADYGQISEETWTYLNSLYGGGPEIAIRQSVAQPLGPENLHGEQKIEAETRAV
# Sequence of UniProt Q9UNQ0 (whole entry, looked up): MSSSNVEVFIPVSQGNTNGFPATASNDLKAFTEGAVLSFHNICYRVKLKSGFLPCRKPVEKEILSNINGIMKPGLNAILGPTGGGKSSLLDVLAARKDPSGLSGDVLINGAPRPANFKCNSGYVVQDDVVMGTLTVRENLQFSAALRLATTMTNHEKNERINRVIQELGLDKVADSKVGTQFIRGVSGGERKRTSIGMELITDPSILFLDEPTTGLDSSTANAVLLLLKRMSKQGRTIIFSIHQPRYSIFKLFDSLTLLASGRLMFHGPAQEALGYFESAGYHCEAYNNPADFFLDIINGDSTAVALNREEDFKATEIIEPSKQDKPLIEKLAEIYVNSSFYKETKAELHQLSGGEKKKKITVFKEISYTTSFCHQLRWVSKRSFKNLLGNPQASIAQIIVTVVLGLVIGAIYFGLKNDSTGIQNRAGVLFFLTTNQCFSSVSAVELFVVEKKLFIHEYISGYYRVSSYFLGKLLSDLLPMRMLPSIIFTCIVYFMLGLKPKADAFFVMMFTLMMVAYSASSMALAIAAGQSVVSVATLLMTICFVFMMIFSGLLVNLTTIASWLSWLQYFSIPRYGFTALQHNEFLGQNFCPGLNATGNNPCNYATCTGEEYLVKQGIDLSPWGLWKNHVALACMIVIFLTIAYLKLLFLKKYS
# Sequence of UniProt P49840 (whole entry, looked up): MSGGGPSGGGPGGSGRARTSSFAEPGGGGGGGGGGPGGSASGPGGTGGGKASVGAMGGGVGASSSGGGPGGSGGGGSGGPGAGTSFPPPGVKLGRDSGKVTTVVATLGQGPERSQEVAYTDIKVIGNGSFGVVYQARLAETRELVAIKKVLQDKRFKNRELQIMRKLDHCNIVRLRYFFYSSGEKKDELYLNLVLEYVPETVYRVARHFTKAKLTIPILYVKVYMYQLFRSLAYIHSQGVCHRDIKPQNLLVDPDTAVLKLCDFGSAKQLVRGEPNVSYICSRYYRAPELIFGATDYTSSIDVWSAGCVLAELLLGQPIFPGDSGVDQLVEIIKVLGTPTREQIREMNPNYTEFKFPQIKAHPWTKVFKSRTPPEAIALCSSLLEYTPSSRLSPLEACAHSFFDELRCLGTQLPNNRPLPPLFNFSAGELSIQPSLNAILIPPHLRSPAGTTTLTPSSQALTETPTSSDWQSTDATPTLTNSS
# Sequence of UniProt P08183 (whole entry, looked up): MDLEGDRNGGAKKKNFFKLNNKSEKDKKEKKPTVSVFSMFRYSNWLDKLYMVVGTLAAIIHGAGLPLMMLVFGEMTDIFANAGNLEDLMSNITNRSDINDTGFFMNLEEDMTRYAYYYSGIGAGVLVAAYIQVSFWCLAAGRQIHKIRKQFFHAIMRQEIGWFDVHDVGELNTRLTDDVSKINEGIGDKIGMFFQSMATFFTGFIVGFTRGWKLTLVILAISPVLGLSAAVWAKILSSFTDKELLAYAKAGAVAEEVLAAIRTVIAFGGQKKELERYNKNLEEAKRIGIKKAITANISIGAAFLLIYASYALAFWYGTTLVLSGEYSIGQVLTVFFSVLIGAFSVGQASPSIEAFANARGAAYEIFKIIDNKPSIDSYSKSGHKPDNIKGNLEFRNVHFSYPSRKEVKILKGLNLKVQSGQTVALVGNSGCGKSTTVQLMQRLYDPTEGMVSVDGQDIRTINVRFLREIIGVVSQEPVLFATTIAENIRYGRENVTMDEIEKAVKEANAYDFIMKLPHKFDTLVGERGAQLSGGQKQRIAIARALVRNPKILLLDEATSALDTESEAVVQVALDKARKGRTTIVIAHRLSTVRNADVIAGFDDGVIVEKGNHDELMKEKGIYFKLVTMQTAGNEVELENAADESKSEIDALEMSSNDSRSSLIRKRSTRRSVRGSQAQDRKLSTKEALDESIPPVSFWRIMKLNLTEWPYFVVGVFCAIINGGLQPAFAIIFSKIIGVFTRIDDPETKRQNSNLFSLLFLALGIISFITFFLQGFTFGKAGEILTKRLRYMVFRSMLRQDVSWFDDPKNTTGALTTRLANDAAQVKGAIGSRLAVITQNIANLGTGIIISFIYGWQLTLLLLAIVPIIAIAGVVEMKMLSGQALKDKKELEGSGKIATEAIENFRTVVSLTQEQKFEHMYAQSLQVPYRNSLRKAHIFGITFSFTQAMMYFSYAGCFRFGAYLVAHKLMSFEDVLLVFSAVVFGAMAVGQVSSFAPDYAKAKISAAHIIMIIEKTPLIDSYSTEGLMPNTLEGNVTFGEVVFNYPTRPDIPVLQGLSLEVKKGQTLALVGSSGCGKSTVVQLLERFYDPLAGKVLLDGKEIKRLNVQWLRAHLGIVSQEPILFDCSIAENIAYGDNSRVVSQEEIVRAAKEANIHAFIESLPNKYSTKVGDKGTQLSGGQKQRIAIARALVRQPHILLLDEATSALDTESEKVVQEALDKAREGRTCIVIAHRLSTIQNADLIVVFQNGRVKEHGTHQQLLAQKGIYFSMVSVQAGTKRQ
SMILES,tested on,assay,system,conditions,scale,measurement,result
O=C(O)CCC1=Nc2cccc3cccc(c23)N1,USP20 ZnF-UBD domain,,,,,Kd,> 1000 µM
CC[C@H](CO)N(CCN(N=O)[C@H](CC)CO)N=O,Salmonella typhimurium,"mutagenicity, Ames plate incorporation",TA98,"5000 µg/plate, without S9, methanol",,revertant colonies per plate,33 ± 6
Cc1cc(C(=O)NC(C)(C)COc2cccc3c2C(N)=NS(=O)(=O)N3)cc(C)n1,human peripheral blood lymphocytes,"CBPI, preliminary test",,"60 µg/mL, 4 h",reference: vehicle control,cytotoxicity,6%
CC[C@]1(O)C[C@H]2CN(CCc3c([nH]c4ccccc34)[C@@](C(=O)OC)(c3cc4c(cc3OC)N(C=O)[C@H]3[C@@](O)(C(=O)OC)[C@H](OC(C)=O)[C@]5(CC)C=CCN6CC[C@]43[C@@H]65)C2)C1,CHP-212 resistant subline R2 (heterozygous USP7 V517F),cell viability,,13.72 nM,,viability,78.6% and 64.2%
Cc1cc(N)c2c(OCC(C)(C)C(=O)NC(C)C)cccc2n1,Salmonella typhimurium,"reverse mutation, plate incorporation",TA100,"1000 µg/plate, with rat liver S9",,mean revertant colonies,77 colonies/plate
Cc1cc(Nc2cc3ncccc3c(N[C@@H]3C[C@H]4CC[C@@H](C3)N4CCC#N)n2)n[nH]1,,,healthy human subjects,"oral, 1000 mg, 2 weeks, single ascending dose",,skin subcutaneous disorders incidence,0%
CC[C@@H]1[C@H](F)C(=O)N[C@@H]1COc1nccc2cc(C(N)=O)c(OC)cc12,"GSK3A (Homo sapiens, UniProt P49840)","ATP-site probe binding, ActivX profiling",THP-1 cell lysate,"0.2 mM, Lys2 site",,inhibition,-1.9%
O=C(O)CNC(=O)c1ccc(C(=O)N2CCC(c3ccc(Cl)cc3)CC2)cn1,USP20 ZnF-UBD domain,,,,,Kd,430 µM
CC[C@H]1[C@@H](O)[C@@H]2[C@H](CC[C@]3(C)[C@@H]([C@H](C)CCNC(=O)NS(=O)(=O)c4ccc(C(C)(C)C)cc4)CC[C@@H]23)[C@@]2(C)CC[C@@H](O)C[C@@H]12,"ABCB1 (Homo sapiens, UniProt P08183)",,"human, plasma","dose not given, median, alone",,Tmax,4 h
Cc1cc(Nc2ccc(S(F)(F)(F)(F)F)cc2)n2nc(C(C)(F)F)nc2n1,Plasmodium vivax,12-lead ECG,malaria patients,"oral, 600 mg, increase above 60 ms",,patients with QTcF increase,0%
C[C@]12CCCN1CC1=NNC(=O)c3cc(F)cc4[nH]c2c1c34,"ABCG2 (Homo sapiens, UniProt Q9UNQ0)",substrate,membrane vesicles,"0.5 µM, with: AMP",,uptake rate,0.295 pmol/min/mg
O=C(O)CN1CCCN2CCN(CC(=O)O)CCCN(CC1)Cc1cccc(n1)C2,,,64Cu complex,"24 h, 70 °C, with: DOTA excess",,intact complex,95%
CC(C)(C(=O)N1CCOc2c(C#N)cncc2C1)C(F)F,,refers to: Polyuria,human,"oral, 10 mg, CSF pharmacokinetic cohort",,subjects with adverse event,0%
COc1cc(O)c(CC=C(C)C)c(O)c1C(=O)/C=C/c1ccc(O)cc1,CYP3A4 (human),"enzyme activity, inhibitor",human liver microsomes,"1 µM, pH 7.4, with: midazolam",,inhibition,< 10%
c1csc(CNc2cc[nH]n2)c1,human peripheral blood lymphocytes,,,"25 µg/mL, 20 h",,numerical aberration cells,0%
